Assay results gathered from unrelated publications.
Protocols differ between the studies behind these lines. Numbers after ± are the reported error.
USP13 ZnF-UBD domain: Ubiquitin carboxyl-terminal hydrolase 13, ZnF-UBD domain (USP13, Homo sapiens, UniProt Q92995)
Sequence of UniProt Q92995 (whole entry, looked up): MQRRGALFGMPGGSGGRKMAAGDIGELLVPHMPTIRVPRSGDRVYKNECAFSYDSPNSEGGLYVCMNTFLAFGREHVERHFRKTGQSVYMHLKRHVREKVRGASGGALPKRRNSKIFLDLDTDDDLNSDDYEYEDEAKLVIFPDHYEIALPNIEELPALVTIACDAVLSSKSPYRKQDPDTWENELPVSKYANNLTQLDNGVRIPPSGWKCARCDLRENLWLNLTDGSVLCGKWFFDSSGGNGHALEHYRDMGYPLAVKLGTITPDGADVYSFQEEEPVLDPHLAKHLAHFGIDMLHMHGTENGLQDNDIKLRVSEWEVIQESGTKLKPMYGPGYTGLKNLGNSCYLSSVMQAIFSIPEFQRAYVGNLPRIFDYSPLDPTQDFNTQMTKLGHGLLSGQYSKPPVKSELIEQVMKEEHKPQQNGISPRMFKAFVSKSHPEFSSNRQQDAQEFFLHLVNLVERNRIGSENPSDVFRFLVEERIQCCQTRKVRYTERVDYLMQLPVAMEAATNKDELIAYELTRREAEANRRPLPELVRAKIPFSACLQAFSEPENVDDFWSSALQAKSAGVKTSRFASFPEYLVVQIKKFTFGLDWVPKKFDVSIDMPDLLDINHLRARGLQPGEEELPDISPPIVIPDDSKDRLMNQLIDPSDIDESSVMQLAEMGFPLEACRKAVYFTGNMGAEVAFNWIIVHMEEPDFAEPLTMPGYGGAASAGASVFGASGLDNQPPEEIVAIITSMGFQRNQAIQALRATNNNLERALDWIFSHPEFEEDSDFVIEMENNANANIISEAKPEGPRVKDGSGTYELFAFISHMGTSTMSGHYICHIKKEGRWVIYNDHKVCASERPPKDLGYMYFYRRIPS
Sequence of UniProt Q15349 (whole entry, looked up): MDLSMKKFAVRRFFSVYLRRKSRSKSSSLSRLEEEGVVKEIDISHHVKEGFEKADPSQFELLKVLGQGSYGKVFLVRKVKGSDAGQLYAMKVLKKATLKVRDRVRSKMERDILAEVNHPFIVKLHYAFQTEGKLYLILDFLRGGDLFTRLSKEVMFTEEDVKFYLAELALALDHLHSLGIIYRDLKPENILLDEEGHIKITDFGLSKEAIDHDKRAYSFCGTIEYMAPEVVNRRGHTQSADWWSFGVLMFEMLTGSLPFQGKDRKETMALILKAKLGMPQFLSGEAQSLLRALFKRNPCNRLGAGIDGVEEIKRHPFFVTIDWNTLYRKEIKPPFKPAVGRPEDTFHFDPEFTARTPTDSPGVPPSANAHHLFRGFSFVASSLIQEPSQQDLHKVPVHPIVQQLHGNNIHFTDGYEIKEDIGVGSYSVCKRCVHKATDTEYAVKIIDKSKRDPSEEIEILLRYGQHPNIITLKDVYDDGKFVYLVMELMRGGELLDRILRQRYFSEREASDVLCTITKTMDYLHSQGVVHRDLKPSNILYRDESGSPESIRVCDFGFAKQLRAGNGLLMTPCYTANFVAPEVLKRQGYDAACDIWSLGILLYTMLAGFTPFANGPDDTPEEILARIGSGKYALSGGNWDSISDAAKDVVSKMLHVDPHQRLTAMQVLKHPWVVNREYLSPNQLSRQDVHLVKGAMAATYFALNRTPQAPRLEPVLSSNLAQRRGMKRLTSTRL

Structure (SMILES) | tested on | assay | system | conditions | scale | quantity | value
FC(F)(F)c1ccc(CNc2ccc(Cc3c[nH]c4ncc(Cl)cc34)cn2)cn1 |  | refers to: Rash | patients with advanced solid tumours, non-TGCT cohort | oral, 1000 mg/day, any grade |  | treatment-related adverse events | 8%
N#Cc1ccc2c(c1)[C@H]1CCCN(C(=O)c3ccc4[nH]cnc4c3)[C@H]1C2 |  |  | human, plasma | oral, 80 mg once daily, steady state |  | Cmax steady state | 6.71 µM
Cn1cnc2ccc(Nc3c(F)ccc(NS(=O)(=O)N4CC(F)C4)c3Cl)c(Cl)c2c1=O |  | refers to: headache grade ≥3 | human patients | dose not given, monotherapy trial | baseline: patients | patients with headache | 0%
C[C@H]1CN(C(=O)CC#N)[C@]12CCN(c1ncnc3[nH]ccc13)C2 |  |  | healthy adults, plasma | oral, 12 mg single dose, day 1, geometric mean |  | Cmax | 99.3 ng/mL
Cc1ccc([C@@H]2O[C@H](CO)[C@@H](O)[C@H](O)[C@H]2O)cc1Cc1ccc(-c2ccc(F)cc2)s1 |  |  | Japanese type 2 diabetes patients | 400 mg, day 2, 24 h urine collection | baseline: baseline | urinary magnesium excretion change | -13.1 mg
Cc1cc(NC2CCN(C(=O)OC3CCN(C(=O)/C=C/CN(C)C)C3)CC2)n2ncc(C(C)C)c2n1 (centres unmarked) |  | Phase I dose escalation CTCAE v4.0, refers to: back pain | patients with advanced solid tumours | dose not given, TIW dosing any grade |  | patients with adverse event | 0%
O=C(O)CCc1cnn(-c2ccccc2)c1 | USP13 ZnF-UBD domain |  |  |  |  | Kd | > 1000 µM
CC[C@@H]1[C@H](F)C(=O)N[C@@H]1COc1nccc2cc(C(N)=O)c(OC)cc12 | Ribosomal protein S6 kinase alpha-2 (RPS6KA2, Homo sapiens, UniProt Q15349) | ATP probe binding, KiNativ profiling, refers to: RSK3 Lys2 probe site | THP-1 cell lysate |  |  | IC50 | > 5 µM
C[C@H](CCC(=O)O)[C@H]1CC[C@H]2[C@@H]3[C@H](O)C[C@@H]4C[C@H](O)CC[C@]4(C)[C@H]3C[C@H](O)[C@]12C |  |  | human, plasma | control |  | Cmin | 21.3 ± 5.4 nM
CCCCC1=NC2(CCCC2)C(=O)N1Cc1ccc(-c2ccccc2S(=O)(=O)Nc2noc(C)c2C)c(COCC)c1 |  |  | healthy adult volunteers, plasma | oral, 50 mg, single dose, fed, crushed tablet |  | Tmax | 4.24 h
Cl.[2H]C([2H])([2H])CC(=O)c1cnc(NC(=O)C2CC2)cc1Nc1cccc(-c2ncn(C([2H])([2H])[2H])n2)c1OC |  | geometric mean | human | oral, 50 mg single dose, fasted, liquid |  | half-life | 449 min
CCc1cc(C(=O)NC)c2nccc(N3CCc4c(cc(Cn5ccnc5)cc4-c4cn(C)nc4C(F)(F)F)C3=O)c2c1 |  |  | Sprague Dawley rats | oral, 100 mg/kg twice daily, 7 days |  | serum HDL level | 1.1 ± 0.24 mmol/L
CC[C@H](C)C(=O)N1CCC(NC(=O)Nc2ccc(OC(F)(F)F)c(F)c2)CC1 |  |  | Gelucire 44/14 melt | 75 °C |  | equilibrium solubility | 37.7 mg/mL
NC(=O)N1c2ccccc2C=Cc2ccccc21 |  | refers to: total adverse events | human male | oral, dose not given, CTCAE on-treatment AEs |  | adverse events incidence | 73%
O=C(COc1ccc(Cl)cc1)NC12CC(c3nnc([C@H]4C[C@@H](OC(F)(F)F)C4)o3)(C1)C2 |  | abnormal haematology test | human, both sexes | oral, dose not given, single ascending dose, fasted, all doses | baseline: subjects | treatment-emergent adverse events | 5.6%
C[C@@H](Nc1cc(F)cc(F)c1)c1cc(C(=O)N(C)C)cc2c(=O)cc(N3CCOCC3)oc12 |  | refers to: Anemia | advanced solid tumour patients | oral, dose not given, dose expansion |  | related serious adverse events | 0%
N#Cc1cc([C@H]2COC[C@@H](c3cc(Cl)cc(Cl)c3)N2)ccc1F |  | shake-flask, LC-HRMS | aqueous buffer | 16 h, pH 6.8 |  | solubility | < 4 µM
C[C@@H](N)c1cc(Cl)ccc1Cn1c(=S)[nH]c(=O)c2[nH]ccc21 |  |  | human severe renal impairment | oral, 2.5 mg single dose |  | subjects with headache | 10%
COc1ccc([C@@H](O)c2cc(-c3ncnc4cc(N5CCOCC5)ccc34)c(F)cc2Cl)nn1 |  |  | locally advanced rectal cancer | all dose levels overall, added: capecitabine and radiotherapy |  | TEAE, lymphocyte count decreased | 37%
O=c1[nH]c(=O)n([C@@H]2O[C@H](CO)[C@@H](O)[C@@H]2F)cc1CCCC[18F] |  |  | nude mice, RG2 tumour, liver | intravenous, dose not given, 2 h |  | biodistribution | 0.24 ± 0.04 %ID/g
COc1ccc2c(c1)CN(C(=O)CCN1CCC(Cc3ccccc3)CC1)CC[S@@+]2[O-] |  | telemetry | conscious male beagle dogs | intravenous, 8 mg/kg, 2 h |  | QRS duration | 34 ± 10 ms
O=c1[nH]c(=O)n([C@@H]2O[C@H](CO)[C@@H](O)[C@@H]2F)cc1CCCCC[18F] |  |  | nude mice, RG2 tumour, skin | intravenous, dose not given, 2 h |  | biodistribution | 0.07 ± 0.03 %ID/g

Structure (SMILES) | tested on | assay | system | conditions | scale | quantity | value
C[C@@H](c1ncncc1F)[C@](O)(Cn1cncn1)c1ccc(F)cc1F |  | refers to: Headache | human | oral, 200 mg |  | drug-related TEAE incidence | 0%
CCn1c(=O)c(-c2cc(NC(=O)Nc3ccccc3)c(F)cc2Br)cc2cnc(NC)cc21 |  | refers to: lipase increased | healthy human, matched to severe hepatic impairment | oral, 50 mg single dose |  | participants with grade ≥ 3 TEAE | 0%
CNC(=O)c1ccc(-c2cnc3ncc(Cc4ccc5ncccc5c4)n3n2)cc1F |  |  | human moderate hepatic impairment | oral, 200 mg single dose, covariate-adjusted geometric mean |  | AUC(0-t) | 6180 ng·h/mL
Cc1cc(C)c(CNC(=O)c2cc(Cl)c3c(c2C)O[C@@](C)([C@H]2CC[C@H](N(C)C)CC2)O3)c(=O)[nH]1 |  |  | relapsed/refractory NHL patients | oral, 200 mg once daily, onset after cycle 1 day 1 |  | grade ≥3 Platelet count decreased | 16.7%
Cn1cc(-c2ccc(-c3cncc(Cl)c3N3CCC4(CCNC4=O)CC3)cc2)cn1 | COLO 205 | gene expression, microarray, refers to: PDK4 mRNA |  | concentration not given, 6 h | baseline: untreated cells | log2 fold change | -2.22
C[C@@H](N)C1CCN(S(=O)(=O)c2cccc3cnccc23)CC1 |  | refers to: Syncope | healthy volunteers | 150 mg, fed |  | TEAE incidence | 0%
COC(=O)N[C@@H](C)CNc1nccc(-c2cn(C(C)C)nc2-c2cc(Cl)cc(NS(C)(=O)=O)c2F)n1 |  |  | human, plasma | oral, single dose, added: diltiazem | baseline: compound alone | Cmax geometric mean ratio | 145%
COCCOc1cnc2ccn([C@H](C)c3nnc4c(F)cc(-c5cnn(C)c5)cn34)c(=O)c2c1 |  |  | patients, plasma | oral, 150 mg once daily, day 1 24 h postdose |  | Ctrough | 0.2 µg/mL
CCOC(=O)N1C[C@@H](c2ccc(C(F)(F)F)cc2)N[C@@H](c2ccc(N3CCCC3)cc2)C1 |  | shake-flask, LC-HRMS | aqueous buffer | 16 h, pH 6.8 |  | solubility | < 4 µM
CCC[C@H]1CC[C@H](c2ccc(C#N)cc2)CC1 |  |  | Sprague-Dawley rat, female, placenta | 5000 ng/mL in perfusate, 50 (unit not given), high dose, mixture of 21 LCMs |  | placental accumulation | 816 ± 943 ng/g
CNC(=O)c1ccc(-c2cnc3ncc(Cc4ccc5ncccc5c4)n3n2)cc1F |  | refers to: Fatigue | other cancer patients | oral, 600 mg twice daily, expansion cohort, grade 3-4 |  | patients with adverse event | 6%
CCn1ncc2c1-c1cnc(N)c(c1)O[C@H](C)c1cc(F)ccc1-c1nn(C)nc1C2 |  |  | female athymic nude mice, sample B PDX | oral, 5 mg/kg twice daily for 21 days, 12 h |  | unbound plasma trough concentration | 69 ± 10 nM
CCC(C)n1ncn(-c2ccc(N3CCN(c4ccc(OCC5COC(Cn6cncn6)(c6ccc(Cl)cc6Cl)O5)cc4)CC3)cc2)c1=O (centres unmarked) |  |  | aqueous medium | pH 1 |  | equilibrium solubility | 0.045 mg/mL
CC(C)NCCCC[C@@H]1NC(=O)[C@H](Cc2ccc(O)cc2)NC(=O)[C@H](Cc2ccccc2)NC(=O)CC[C@H](C(=O)N[C@@H](CCCCNC(C)C)C(=O)N[C@@H](CCCCNC(=O)[C@H](CCC(=O)O)NC(=O)[C@H](CCC(=O)O)NC(=O)[C@H](CCC(=O)O)NC(=O)CN2CCN(CC(=O)O)CCN(CC(=O)O)CCN(CC(=O)O)CC2)C(N)=O)NC(=O)CNC(=O)[C@H](Cc2ccc3ccccc3c2)NC(=O)[C@@H](CCCNC(=N)N)NC1=O [gallium-68 labelled] |  |  | mouse with PC-3 xenograft, adrenals | intravenous, 1 h |  | tissue uptake | 0.32 %ID/g
O=c1[nH]c(=O)n([C@H]2C[C@H](O)[C@@H](CO)O2)cc1CCC[18F] |  |  | male CD-1 nu/nu mice, RG2 tumour, lung | intravenous, dose not given, 2 h |  | biodistribution | 0.31 ± 0.1 %ID/g
CC(C)(C)C[C@@H]1COC[C@H](c2ccc(C#N)cc2)N1 |  | shake-flask, LC-HRMS | aqueous buffer | 16 h, pH 6.8 |  | solubility | > 750 µM
CNCCOC12CC3(C)CC(C)(CC(Cn4ncc(-c5ccc(N6CCc7cccc(C(=O)Nc8nc9ccccc9s8)c7C6)nc5C(=O)O)c4C)(C3)C1)C2 |  |  | beagle dog, male, anaesthetised | intravenous bolus, 0.03 mg/kg, 135 min | baseline: baseline | heart rate change | -1%
NC1(C(=O)N[C@@H](CCO)c2ccc(Cl)cc2)CCN(c2nc[nH]c3nccc2-3)CC1 |  |  | human mCRPC patients | oral, twice daily, 4/7 days, grade 3/4, treatment-related, added: enzalutamide 160 mg daily |  | decreased appetite incidence | 0%
CCc1ccc(C(=O)Oc2ccc(C#N)c(F)c2)cc1 |  |  | Sprague-Dawley rat, female, placenta | 5000 ng/mL in perfusate, 50 (unit not given), high dose, mixture of 21 LCMs |  | placental accumulation | 36.3 ± 36.3 ng/g
O=C(O)Cn1ccc2ccccc2c1=O | USP13 ZnF-UBD domain |  |  |  |  | Kd | 228 µM
CN1CCN(c2cccc3c2CCN(C(=O)/C=C/c2c(-n4cnnn4)ccc(Cl)c2F)[C@@H]3C(=O)Nc2ccc(C(=O)O)cc2)C(=O)C1 |  |  | healthy human subjects | intravenous infusion, 25 mg/h, 2 h |  | discontinuations due to adverse events | 0%
CCn1c(=O)c(-c2cc(NC(=O)Nc3ccccc3)c(F)cc2Br)cc2cnc(NC)cc21 |  |  | human plasma | 150 ng/mL, 24 h, 24 °C, low QC |  | short-term stability accuracy | 9.29%
